Measured values of several laboratories.
Parts stem from different laboratories: compare values within a part only.

Set 1
Target: Centromere-binding protein 1, full length, N-terminal tag (CBF1, Saccharomyces cerevisiae, UniProt P17106, residues 1-351)
UniProt P17106, sequence (whole entry, looked up): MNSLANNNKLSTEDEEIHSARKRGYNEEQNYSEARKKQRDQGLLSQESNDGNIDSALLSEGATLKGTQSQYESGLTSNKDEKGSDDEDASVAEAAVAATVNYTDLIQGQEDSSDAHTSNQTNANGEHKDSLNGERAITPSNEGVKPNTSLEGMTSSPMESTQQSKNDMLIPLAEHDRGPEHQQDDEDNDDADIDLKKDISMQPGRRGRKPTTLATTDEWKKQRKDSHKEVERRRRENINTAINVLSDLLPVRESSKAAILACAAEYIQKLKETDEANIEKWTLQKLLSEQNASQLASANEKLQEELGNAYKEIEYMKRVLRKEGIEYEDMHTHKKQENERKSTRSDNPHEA
Technique: protein-binding microarray
Form: double-stranded DNA, one strand shown
Sample: in vitro
Tested at: 0.8 µM
Notes: whole 60-bp probe, no competitor
Direction: higher = stronger binding
The fluorescence intensity of `CTAAGTATCGCGCTGCACGAGCGTGACGGCGGTTTCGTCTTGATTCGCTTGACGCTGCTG` is reported as 720 a.u.
The fluorescence intensity of `CTATATATGTATAATCACGTAGATAATGTATTGTTCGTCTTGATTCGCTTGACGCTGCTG` is reported as 1150 a.u.
`CTACATTATGATGTACACCTCACGTTAGTGCAATTCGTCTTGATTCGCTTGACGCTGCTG` has a fluorescence intensity of 584 a.u.
For `CCTAACTACTATACCAACACGCAATAGCTTCGTACAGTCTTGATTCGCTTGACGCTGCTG`, the fluorescence intensity was 518 a.u.
`GAATAGAACTCGCCTTACGTGCTCTACATTCGTTAGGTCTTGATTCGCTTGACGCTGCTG` gave a fluorescence intensity of 491 a.u.
For `CTATTTGTCTACTTGCGTGTGCTTTCAGTTCTTTTCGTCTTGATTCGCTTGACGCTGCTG`, the fluorescence intensity was 535 a.u.
`GAATTTTTAAAAAAACCTCACATGTAGGCGATTTAGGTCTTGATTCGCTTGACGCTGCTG` gave a fluorescence intensity of 755 a.u.
The fluorescence intensity of `GAAACAAGAAGATAACATCAGAATGGCTTATCGTAGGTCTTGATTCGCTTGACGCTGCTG` is reported as 481 a.u.

Set 2
Molecule: PhoQ, residues 284 288 289 292 302 303 SSCCRF
Technique: Sort-seq
Refers to: YFP reporter
Sample: E. coli
Notes: PhoQ-PhoP variant library
Added: 10 µM Mg2+
Relative to: high Mg2+ state
Direction: higher = stronger signaling
It gave 3.46 for fold induction (PhoP, residues 12 14 15 18 19 LHTVL (Escherichia coli, UniProt P23836)).
It gave 23.6 for fold induction (PhoP, residues 12 14 15 18 19 TQAML (Escherichia coli, UniProt P23836)).
For PhoP, residues 12 14 15 18 19 NQCAL (Escherichia coli, UniProt P23836): fold induction read 19.4.

Set 3
Target: Sal-like protein 4, full length isoform A (SALL4, Homo sapiens, UniProt Q9UJQ4, residues 1-1053)
UniProt Q9UJQ4, sequence (whole entry, looked up): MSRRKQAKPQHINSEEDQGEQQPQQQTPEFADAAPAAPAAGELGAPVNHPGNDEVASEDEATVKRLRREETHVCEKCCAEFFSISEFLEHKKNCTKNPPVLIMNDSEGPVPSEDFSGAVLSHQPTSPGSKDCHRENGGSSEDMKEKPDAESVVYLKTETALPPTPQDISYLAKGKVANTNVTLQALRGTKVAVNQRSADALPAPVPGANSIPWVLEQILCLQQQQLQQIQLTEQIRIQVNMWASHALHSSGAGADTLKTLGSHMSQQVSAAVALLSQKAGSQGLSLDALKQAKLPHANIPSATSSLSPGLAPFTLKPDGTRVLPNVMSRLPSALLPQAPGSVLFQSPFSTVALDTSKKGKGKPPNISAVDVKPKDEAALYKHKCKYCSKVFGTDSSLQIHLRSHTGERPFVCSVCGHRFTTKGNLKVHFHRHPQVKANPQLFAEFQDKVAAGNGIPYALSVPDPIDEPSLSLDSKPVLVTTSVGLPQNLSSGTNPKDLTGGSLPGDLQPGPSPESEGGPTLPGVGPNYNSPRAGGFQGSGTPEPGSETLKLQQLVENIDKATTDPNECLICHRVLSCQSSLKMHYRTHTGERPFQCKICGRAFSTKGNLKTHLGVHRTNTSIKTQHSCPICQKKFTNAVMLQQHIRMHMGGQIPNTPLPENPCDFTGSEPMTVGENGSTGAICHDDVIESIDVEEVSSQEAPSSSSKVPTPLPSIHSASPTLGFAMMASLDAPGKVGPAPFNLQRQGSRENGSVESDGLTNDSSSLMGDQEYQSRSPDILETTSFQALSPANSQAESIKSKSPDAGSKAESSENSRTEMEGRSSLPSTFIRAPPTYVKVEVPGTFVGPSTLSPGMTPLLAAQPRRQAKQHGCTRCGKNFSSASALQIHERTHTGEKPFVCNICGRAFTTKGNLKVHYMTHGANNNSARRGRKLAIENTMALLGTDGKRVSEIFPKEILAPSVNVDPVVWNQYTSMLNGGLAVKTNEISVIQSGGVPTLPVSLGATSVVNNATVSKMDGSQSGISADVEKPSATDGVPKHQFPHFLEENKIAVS
Technique: universal PBM
Form: double-stranded DNA, one strand shown
Sample: in vitro
Tested at: 600 nM
Notes: 8-mer, flanks averaged, mean of replicates
Direction: higher = stronger binding
For `CGTCGTCA`, the E-score was -0.136.
For `CGTGTCCA`, the E-score was -0.204.
With `AGCCTACG` the E-score was -0.0932.
`CGCACGAG` gave an E-score of -0.228.
For `ACTCAACG`, the E-score was -0.0411.
For `ACGAGTAA`, the E-score was 0.182.
With `AATACGGA` the E-score was 0.125.
The E-score of `GTTAGACA` is reported as 0.195.
`CGGCGGGA` has an E-score of -0.433.
For `GCAACATA`, the E-score was 0.18.
`ACAAGGCT` gave an E-score of -0.0383.
`ATCGTAGA` has an E-score of 0.12.

Set 4
Target: Probable WRKY transcription factor 50, DNA-binding domain (WRKY50, Arabidopsis thaliana, UniProt Q8VWQ5, residues 99-173)
Technique: DNA-protein interaction ELISA
Form: double-stranded DNA, one strand shown
Sample: in vitro, bacterial lysate
Tested at: not given
Notes: whole dsDNA probe, crude lysate protein
Relative to: highest signal in screen
Direction: higher = stronger binding
Construct (chain): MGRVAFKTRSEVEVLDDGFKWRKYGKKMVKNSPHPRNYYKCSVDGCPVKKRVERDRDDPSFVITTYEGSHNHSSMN
`AAAAAAAGGGTCCGGTGCATACATGTAAAA` gave a relative absorbance of 45.4 % of maximum.
The relative absorbance of `AAAAAACCTTCCCCCTCTTCTGCCTTAAAA` is reported as 14.2 % of maximum.
`AAAAAACATTCCTAGTTCATGTTACTAAAA` has a relative absorbance of 29.8 % of maximum.
For `AAAAAATAGTGTGATTGGTATCCAGTAAAA`, the relative absorbance was 20.1 % of maximum.
`AAAAAAATGATTGCCAATGCTCGCAAAAAA` has a relative absorbance of 25.1 % of maximum.
`AAAAAACCAGCCTCAGTCCTGAACAAAAAA` has a relative absorbance of 10.5 % of maximum.
With `AAAAAAGCTGTCACTGTAGTCGGTCCAAAA` the relative absorbance was 22.3 % of maximum.
The relative absorbance of `AAAAAAGGTAATGCCGGTCCCAGTATAAAA` is reported as 28.3 % of maximum.
For `AAAAAACGGAAGATCGTGACTGCTAGAAAA`, the relative absorbance was 18.7 % of maximum.

Some of these lines once more (set 1):
The fluorescence intensity of `GAAACAAGAAGATAACATCAGAATGGCTTATCGTAGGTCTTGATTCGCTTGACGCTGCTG` is reported as 481 a.u.
For `CCTAACTACTATACCAACACGCAATAGCTTCGTACAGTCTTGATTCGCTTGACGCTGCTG`, the fluorescence intensity was 518 a.u.
For `CTATTTGTCTACTTGCGTGTGCTTTCAGTTCTTTTCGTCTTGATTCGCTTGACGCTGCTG`, the fluorescence intensity was 535 a.u.
`GAATAGAACTCGCCTTACGTGCTCTACATTCGTTAGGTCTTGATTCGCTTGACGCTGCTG` gave a fluorescence intensity of 491 a.u.
The fluorescence intensity of `CTATATATGTATAATCACGTAGATAATGTATTGTTCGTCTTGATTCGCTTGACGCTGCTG` is reported as 1150 a.u.
